Experimental data of several laboratories.
Parts stem from different laboratories: compare values within a part only. Positions count from the first letter of the parent shown.

Block 1
Target: Histone acetyltransferase KAT6A, winged helix 1, GST fusion (KAT6A, Homo sapiens, UniProt Q92794, residues 1-85)
Technique: protein binding microarray
Form: double-stranded DNA, one strand shown
Sample: in vitro
Concentration: not given
Setting: 8-mer, flanks averaged, mean of 2 arrays, mostly near background
Relative to: not given
Reading: higher = stronger binding
Target sequence (chain): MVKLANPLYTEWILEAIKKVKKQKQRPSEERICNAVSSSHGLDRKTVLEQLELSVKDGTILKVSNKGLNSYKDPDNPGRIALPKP
| Sequence | E-score |
| --- | --- |
| CCAGGTTC | -0.217 |
| CCACCACC | -0.149 |
| ATGGCATC | -0.0984 |
| AGGCGCCC | 0.203 |
| CTCCTCTA | -0.224 |
| ATCCCAGG | -0.212 |
| AGGCGAGC | -0.099 |
| CTTGCCTC | -0.0463 |
| CCCGGAGG | 0.0214 |
| AGGGAATA | -0.0541 |
| CAGGAACG | 0.0534 |
| TGCAACAA | -0.238 |
| ACGGGGTC | 0.345 |
| ACTCCAAA | -0.145 |
| CCCTTGCC | -0.0209 |
| CGCCCTCA | 0.0237 |
| TAGCAAGA | -0.217 |
| ACAATGCG | 0.197 |
| CTATGTCA | -0.198 |

Block 2
Target: BATF2, bZIP domain (human)
Technique: DHFR protein complementation
Sample: yeast
Setting: single substitutions, most at no-binding floor
Relative to: wild-type JUN-FOS pair
Reading: higher = stronger binding
Parent: JUN, bZIP domain (human); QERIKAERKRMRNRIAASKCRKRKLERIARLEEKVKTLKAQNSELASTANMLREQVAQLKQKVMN; partner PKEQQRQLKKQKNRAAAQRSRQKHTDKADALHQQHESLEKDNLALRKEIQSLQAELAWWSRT
| Change | binding fitness |
| --- | --- |
| A46T | -0.228 natural log |
| Q55D | -1.1 natural log |
| K36L | -0.333 natural log |
| Q55R | -0.245 natural log |
| A40Q | -0.134 natural log |
| A29Q | -0.337 natural log |
| Q55T | -0.586 natural log |
| V56F | -1.33 natural log |
| A40N | -0.414 natural log |
| I28R | -0.403 natural log |
| T37S | -0.291 natural log |
| K34L | -0.325 natural log |
| I28L | -0.2 natural log |
| A29N | -0.435 natural log |
| E44Y | -0.665 natural log |

Block 3
Target: RING finger protein unkempt homolog, zinc fingers 1-6, GST-SBP tag (UNK, Homo sapiens, UniProt Q9C0B0, residues 30-357)
Sequence of UniProt Q9C0B0 (30-357, looked up): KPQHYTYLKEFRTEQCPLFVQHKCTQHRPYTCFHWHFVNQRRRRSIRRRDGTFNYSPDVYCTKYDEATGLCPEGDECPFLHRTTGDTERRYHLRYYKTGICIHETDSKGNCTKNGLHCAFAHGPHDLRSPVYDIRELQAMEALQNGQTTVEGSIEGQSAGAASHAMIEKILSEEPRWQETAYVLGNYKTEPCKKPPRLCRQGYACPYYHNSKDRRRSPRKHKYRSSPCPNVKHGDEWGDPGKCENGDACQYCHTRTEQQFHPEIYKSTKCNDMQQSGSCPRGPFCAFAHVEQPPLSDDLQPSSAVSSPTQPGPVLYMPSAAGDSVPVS
Technique: RNA Bind-n-Seq
Form: RNA
Sample: in vitro
Concentration: not given
Setting: RNA with constant flanks, human and mouse sites, ends assumed
Relative to: input RNA pool
Reading: higher = stronger binding
All sequences stand within: GGGAGUUCUACAGUCCGACGAUC … CAACAGAGGAUUGAGCAUCA
| Sequence | bound/input enrichment [ratio] |
| --- | --- |
| CCACGGGCAGGGUCGCCCUGGCCCACAGCACGUGAGCCUGCACUCACUGCGGCCUUUGUAACAAAACCAGUUGUGGUCCUCAGCAUUUGAAGCAGCUGCAUACUUCAGAGUAAACUAUUU | 0.112 |
| CAGAUGAGGAAACUGAGGCCCAGAGAAGCGGAAAGGACUUCCCUAGACCUUACAGUAAAUUAGCAUUAAAUGCAGCCUUCCUACCUAGUGGGCACCUUGCUUACAAAAAUUUACCUAGGG | 2.8 |
| CCGGCCCCAGUGCCAUCCAGAAGAAAUCCCCCUGGCGGCAAGUCCAGCCUCGUCUUGGGUUAGCUCUGACUGUCCUGAACGCUGUCGUUCUGUCUGUUUCCUCCAUGCUUGUGAACUGCA | 0.15 |
| AUUUGGUCAAGGCCUGAAAGCACCCAGGUGCAGAAUAUCUUGCGCCAGAGAACAGAAAACAUAGAUAUAAAAAAAUACUGUGUACAUUAUCUUGAGGAUGUAGGUUCUUUUGAAUACACU | 0.513 |
| AUUAAUGCCCUUACUCUAUUUGAGAUUAUCUUCGACAACCUCAGAGCAGAAGUGUUCAACUACAGGGAAUUCAACAAGGGGUCCCUGUUUUACUUAUGCACUACAUCUGGGGUGUGUGUG | 0.234 |
| AAGUUUUCGUAUCACAGUGUUAACCUGUACUCUCUCCUGCAAACCUACACACCAAAGCUUUAUUUAUAUCAUUCCAGUAUCAAUGCUACACAGUGUUGUCCCGAGCGCCGGGAGGCGUUG | 0.361 |
| GGUGCCCCCUCAUUUGUUCGACUGUAUCAGUAUCCCAACUUUGCCGGACCUCAGGCAGCACUGGCCAAUAAAAGCUUCUUUAAAGCUGAUAAGGUUACAAUGCUGUGGAAUAAAAAAGCU | 0.353 |
| CUAGAAUGUGAAUUUUACCUCUUAGAAUUAAUGGACUGUUGCUUGAUAGUGUAUCAUCCUUAUAGACCUUUGCUCCAGUAUGUGCAGGACAUGGGCCAGGAAGACGUGCUGCUUCCCCUU | 1.91 |
| AUUACUCUAAUGGAGUACUAUUCCAAAGAAGCCCUAGGCGAUUCCAAGUCUAAGAAGUCAGUAGCUUAUAAUUACGCAUGCGUACUCACGCUGGUGGUGGCUCAGUCUUCCAGCGGUGUC | 0.931 |
| CAUUUGUAUUGUACAUAAAAUUUUCUAGAAAUACACUUUUUUCCAAAGUGUAAGUUUGUGAAUAGAUUUUAGCAUGAUGAAACUGUCAUAAUGGUGAAUGUUCAAUCUGUGUAAGAAAAC | 0.796 |
| ACAGACUUACUAAGAUUAUUUGAAUAUGGAGGUUUUCCACCAGAAGCCAACUAUCUUUUCUUAGGAGAUUAUGUGGACAGAGGAAAGCAGUCUUUGGAAACCAUCUGUUUGCUAUUGGCU | 0.667 |

Block 4
Target: ABI1, truncated, D143A, DHFR fusion (Arabidopsis thaliana)
Technique: DHFR PCA, deep sequencing
Sample: yeast
Setting: methotrexate growth selection, single substitutions
Added: (+)-ABA 0.0091 µM
Relative to: wild-type fitted maximum
Reading: higher = stronger binding
Parent: PYL1, truncated, DHFR fusion (Arabidopsis thaliana); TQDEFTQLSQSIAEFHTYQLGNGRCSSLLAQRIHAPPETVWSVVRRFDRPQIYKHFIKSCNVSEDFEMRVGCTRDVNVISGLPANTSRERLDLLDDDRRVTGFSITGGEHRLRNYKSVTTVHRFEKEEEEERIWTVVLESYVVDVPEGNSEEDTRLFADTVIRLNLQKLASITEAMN
| Change | relative binding score [%] |
| --- | --- |
| P37A | 23.8 |
| D97V | 30.4 |
| E38M | -7.74 |
| Q2F | 67.9 |
| P36R | 13.6 |
| T119C | -0.0268 |
| E4L | 26.4 |
| E129F | 6.95 |
| Q167F | -4.01 |
| T1I | 34.3 |
| R74F | -0.951 |

Block 5
Target: Interferon regulatory factor 7, full length, phosphomimetic (IRF7, Homo sapiens, UniProt Q92985, residues 1-503, S101K/S471D/S472D/S475D/S476D/S477D/S483D/S484D/S487D)
Technique: protein-binding microarray
Form: double-stranded DNA, one strand shown
Sample: in vitro
Concentration: 250 nM
Setting: 60-bp whole probe
Added: salmon DNA 0.4 mg/ml
Relative to: random background probes
Reading: higher = stronger binding
All sequences stand within: GCCTAGCAC … GTCTTGATTCGCTTGACGCTGCTG
Target sequence (chain): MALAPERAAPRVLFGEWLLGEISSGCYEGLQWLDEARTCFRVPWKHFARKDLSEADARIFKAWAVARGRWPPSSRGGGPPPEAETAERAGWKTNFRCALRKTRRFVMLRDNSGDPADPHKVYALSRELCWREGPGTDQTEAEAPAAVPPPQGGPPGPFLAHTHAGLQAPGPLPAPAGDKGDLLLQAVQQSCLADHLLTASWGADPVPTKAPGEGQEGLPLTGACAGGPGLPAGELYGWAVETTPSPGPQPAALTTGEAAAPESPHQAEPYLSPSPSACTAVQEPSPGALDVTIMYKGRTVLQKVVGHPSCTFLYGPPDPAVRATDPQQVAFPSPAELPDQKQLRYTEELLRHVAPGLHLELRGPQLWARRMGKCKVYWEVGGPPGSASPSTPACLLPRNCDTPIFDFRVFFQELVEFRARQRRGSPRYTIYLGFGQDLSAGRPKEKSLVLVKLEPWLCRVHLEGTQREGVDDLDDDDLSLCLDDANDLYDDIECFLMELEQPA
| Sequence | log fluorescence |
| --- | --- |
| TCATATACCTGTATATCACTGTGCTAG | 0.774 z-score |
| TAAGATTCCAGTTTCGATTAGTGCTAG | 10.5 z-score |
| ATATATATCATTTAATTATAGTGCTAG | 0.477 z-score |
| TTAGGTTTCGGTATCGTTTAGTGCTAG | 11.4 z-score |
| TTAGGTATCGACTTTCTGTTAGTGCTA | 1.66 z-score |
| CACTCTTGCTTTTTAGATCGGTGCTAG | 0.593 z-score |
| GACGGTTTCGGTATCGGGACGTGCTAG | 10.5 z-score |
| TTACATTTCAGTTTCGATTAGTGCTAG | 9.24 z-score |
| TCAGCTTCCATTTTCTGACTGTGCTAG | 0.775 z-score |
| AGTTCTAAGGATTTCAGTTTGTGCTAG | 0.648 z-score |
| GACGGTATTGGGTATCGGGACGTGCTA | 0.0162 z-score |
| TTTGGTATCGGTATCGGTTAGTGCTAG | 3.29 z-score |
| GACGGTTTCATTCTCCTGACGTGCTAG | 3.83 z-score |
| TCAGGTCTCCTTATCCTTTAGTGCTAG | 0.421 z-score |
| TTAGCACTGGGTATCGGTTAGTGCTAG | 0.57 z-score |
| TTACATATCAGTATCGATTAGTGCTAG | 1.15 z-score |
| GACGGACGGGACTATCGGGACGTGCTA | -0.67 z-score |
| AGTGTTACCCCTCATCAACCAGTGCTA | -0.195 z-score |
| TTAGGTATCGGTCTCGGTAAGTGCTAG | 1.11 z-score |
| TTAGATATCAGACTGGTTTAGTGCTAG | 0.374 z-score |
| GGGCCACAAAGCAATAAGAAGTGCTAG | -0.32 z-score |
| TTAGGTTTCGATACTGGGTTAGTGCTA | 8.74 z-score |
| TAAGATTTCGGGACTGGATTAGTGCTA | 0.63 z-score |
| TCATATCTGTGTTATTAAACTGTGCTA | 0.845 z-score |
| GACGGAATGGGTATCGGGACGTGCTAG | -0.229 z-score |

Block 6
Target: CCND3, cyclin fold, Cln2 fusion (human)
Technique: yeast growth competition, sequencing
Sample: yeast
Setting: weak parent motif
Relative to: not given
Reading: higher = stronger binding
Parent: WEE1 docking peptide (human); CTLRQKLIFSPCS
| Change | normalised enrichment score |
| --- | --- |
| ATLRQKLIFSPCS [C1A] | -0.0342 |
| CTLRQKLAFSPCS [I8A] | -0.0645 |
| CTLRAKLIFSPCS [Q5A] | 0.0978 |
| CTLRQALIFSPCS [K6A] | -0.182 |
| CTLRQKAIFSPCS [L7A] | 0.11 |
| CALRQKLIFSPCS [T2A] | -0.036 |
| CTLRQKLIFSPAS [C12A] | 0.68 |

Block 7
Target: Sal-like protein 4, full length isoform A (SALL4, Homo sapiens, UniProt Q9UJQ4, residues 1-1053)
Sequence of UniProt Q9UJQ4 (whole entry, looked up): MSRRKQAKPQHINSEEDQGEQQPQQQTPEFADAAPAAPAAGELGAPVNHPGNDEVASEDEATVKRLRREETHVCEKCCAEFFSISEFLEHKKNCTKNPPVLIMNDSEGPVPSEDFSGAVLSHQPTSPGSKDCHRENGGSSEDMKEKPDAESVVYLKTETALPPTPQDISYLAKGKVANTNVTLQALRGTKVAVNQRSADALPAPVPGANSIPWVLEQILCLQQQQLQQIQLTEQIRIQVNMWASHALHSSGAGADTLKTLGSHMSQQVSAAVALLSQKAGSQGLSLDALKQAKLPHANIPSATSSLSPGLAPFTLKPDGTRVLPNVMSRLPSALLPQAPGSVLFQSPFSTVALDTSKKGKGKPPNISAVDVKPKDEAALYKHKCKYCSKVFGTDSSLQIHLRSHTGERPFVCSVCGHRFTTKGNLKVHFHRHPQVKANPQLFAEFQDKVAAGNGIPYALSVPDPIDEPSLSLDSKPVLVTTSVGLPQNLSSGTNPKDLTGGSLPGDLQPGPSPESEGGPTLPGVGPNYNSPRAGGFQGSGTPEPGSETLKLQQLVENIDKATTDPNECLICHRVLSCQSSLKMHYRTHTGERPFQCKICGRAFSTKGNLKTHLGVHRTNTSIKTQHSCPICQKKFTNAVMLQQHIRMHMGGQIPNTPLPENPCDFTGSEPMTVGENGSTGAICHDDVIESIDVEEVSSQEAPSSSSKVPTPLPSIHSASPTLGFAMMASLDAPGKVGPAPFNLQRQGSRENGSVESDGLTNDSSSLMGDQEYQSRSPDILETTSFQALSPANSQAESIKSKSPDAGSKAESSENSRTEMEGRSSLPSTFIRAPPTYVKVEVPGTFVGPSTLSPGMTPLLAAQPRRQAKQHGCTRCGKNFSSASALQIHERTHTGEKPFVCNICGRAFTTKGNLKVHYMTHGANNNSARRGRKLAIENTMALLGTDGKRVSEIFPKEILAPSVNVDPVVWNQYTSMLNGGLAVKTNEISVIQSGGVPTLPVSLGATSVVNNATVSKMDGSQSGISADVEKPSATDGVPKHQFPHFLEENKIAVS
Technique: universal PBM
Form: double-stranded DNA, one strand shown
Sample: in vitro
Concentration: 600 nM
Setting: 8-mer, flanks averaged, mean of replicates
Reading: higher = stronger binding
| Sequence | E-score |
| --- | --- |
| AGAAAGCA | 0.0824 |
| AAACTATT | 0.274 |
| AATTTACT | 0.309 |
| CGAAATCG | 0.00475 |
| ATTGGCAA | 0.225 |
| AGCGCTGA | -0.183 |
| CCCCTTCA | -0.0885 |
| GGTAAATA | 0.259 |
| GCATTAGA | 0.134 |
| CAGGATAC | -0.057 |
| ATGCTACG | 0.0249 |
| ACAGTGGC | -0.191 |
| CCAAGGGA | -0.223 |
| AAATCCAT | 0.289 |
| CACCACAA | -0.0379 |
| CTACTTAA | 0.0977 |
| AAACGCTT | 0.061 |
| GTACAGAA | 0.0114 |
| AGCGCTCG | -0.229 |
| AACACACA | 0.108 |
| AAAGTACA | 0.233 |
| ATCATTGA | 0.249 |
| CTAATGAC | 0.06 |
| GAATTTGC | 0.135 |
| TCCGAACA | -0.0356 |

Single results of other studies
| Substance | target | assay | system | setting | how to read | measurement | value |
| --- | --- | --- | --- | --- | --- | --- | --- |
| PhoQ, residues 284 288 289 292 302 303 ASVMEA | PhoP, residues 12 14 15 18 19 HEGLL (Escherichia coli, UniProt P23836) | Sort-seq, measured: YFP reporter | E. coli | PhoQ-PhoP variant library, added: 10 µM Mg2+ | relative to: high Mg2+ state, higher = stronger signaling | fold induction | 11.8 |

Repeated from above (block 7):
| Sequence | E-score |
| --- | --- |
| GGTAAATA | 0.259 |
| GCATTAGA | 0.134 |
| CAGGATAC | -0.057 |
| ATGCTACG | 0.0249 |
| ACAGTGGC | -0.191 |
| CCAAGGGA | -0.223 |
| AAATCCAT | 0.289 |
